Experimental data gathered from unrelated publications.
Each numbered part is a random draw from the data of one study; scales do not carry over between parts. Substitutions count along the parent as printed.

Study 1
Target: CCND1, cyclin fold, Cln2 fusion (human)
Technique: yeast growth competition, sequencing
Sample: yeast
Notes: weak parent motif
Relative to: not given
Direction: higher = stronger binding
Starting sequence: CDKN1B docking peptide (human); PSACRNLFGPVDH; partner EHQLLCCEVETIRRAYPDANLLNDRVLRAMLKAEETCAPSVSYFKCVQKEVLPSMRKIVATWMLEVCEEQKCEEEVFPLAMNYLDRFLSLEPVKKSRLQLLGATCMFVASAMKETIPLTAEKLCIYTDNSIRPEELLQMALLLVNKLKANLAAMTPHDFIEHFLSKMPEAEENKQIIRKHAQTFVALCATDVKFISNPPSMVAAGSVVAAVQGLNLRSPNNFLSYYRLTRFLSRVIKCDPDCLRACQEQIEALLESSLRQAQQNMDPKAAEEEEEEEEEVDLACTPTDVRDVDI
| Substitution | normalised enrichment score |
| --- | --- |
| PSACRNLFCPVDH [G9C] | 0.577 |
| TSACRNLFGPVDH [P1T] | 1.49 |
| PSADRNLFGPVDH [C4D] | 0.197 |
| PSACRNLFPPVDH [G9P] | 0.639 |
| PSACRNLFGPGDH [V11G] | 0.931 |
| PSFCRNLFGPVDH [A3F] | 0.43 |
| PSACRDLFGPVDH [N6D] | 0.294 |
| PSACRNLFGPKDH [V11K] | 0.447 |
| PSACRELFGPVDH [N6E] | 1.28 |
| PSACRNLFGPVDA [H13A] | 0.784 |
| PSACRNRFGPVDH [L7R] | -0.0676 |
| PSAFRNLFGPVDH [C4F] | 0.0149 |
| PSACRNMFGPVDH [L7M] | 0.264 |
| PSACRNLFGCVDH [P10C] | 0.339 |
| PSACRNLFGPVFH [D12F] | 0.488 |
| PSACRNLFGPVDI [H13I] | 0.776 |

Study 2
Target: Phosphate system positive regulatory protein PHO4, full length, GST-tagged (PHO4, Saccharomyces cerevisiae, UniProt P07270, residues 1-312)
Technique: competition protein-binding microarray
Form: double-stranded DNA, one strand shown
Sample: in vitro
Tested at: 2 µM
Notes: whole 60-bp probe, lowest competitor level
With: Cbf1 competitor, 0.05 µM
Direction: higher = stronger binding
Target sequence (chain): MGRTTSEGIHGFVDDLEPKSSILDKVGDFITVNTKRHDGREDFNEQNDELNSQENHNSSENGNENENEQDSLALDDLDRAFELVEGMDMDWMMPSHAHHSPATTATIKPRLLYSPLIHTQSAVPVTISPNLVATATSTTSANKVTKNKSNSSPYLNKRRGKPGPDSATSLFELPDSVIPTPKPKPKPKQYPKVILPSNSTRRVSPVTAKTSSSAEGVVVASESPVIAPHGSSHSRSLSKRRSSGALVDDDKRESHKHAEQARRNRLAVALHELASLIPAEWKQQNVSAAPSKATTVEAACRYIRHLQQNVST
| Sequence | fluorescence intensity [a.u.] |
| --- | --- |
| CGCTGCAGCCGCTGCCACGCGTTCCCCGCCCGAGCCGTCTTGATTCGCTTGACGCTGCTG | 8170 |
| TTTACGCGCGGTGTTTTCGTGGCCGTACCGCATTGGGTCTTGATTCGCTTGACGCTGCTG | 4230 |
| GTTAATTTATTCCATCACGGCTGTAATGTAACCAACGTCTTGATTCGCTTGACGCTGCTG | 4500 |
| GCATTACGAGAGAAGTGCGTGATGGCTGGAAACTAGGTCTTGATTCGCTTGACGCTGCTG | 6420 |
| CTAGCCCATAAAATGGTCGTGCGGATTAACGAGCAAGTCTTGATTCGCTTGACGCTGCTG | 6450 |
| AGAAAGAAAGACGACCACGTGACGGGAACGAAGAGCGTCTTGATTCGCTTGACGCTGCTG | 13000 |
| TATTTAATGCGACAGGTGGAAATCAGGACTATGCAGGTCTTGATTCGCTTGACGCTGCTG | 5360 |
| CATGGGGCGGTAGGGTTCGTGATGGTTTTTCTGCCCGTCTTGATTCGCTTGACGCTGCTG | 5580 |
| CATACCCAACCTTGTGATGTGGGTGAAGATATTTGTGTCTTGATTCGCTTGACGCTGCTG | 5290 |
| CTTCTGTAAATTTGTCACTTCACTTGACGCGCCCCGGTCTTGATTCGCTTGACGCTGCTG | 2780 |
| GTCTTGTCTCATTGTCACATGACTTTCCCCACTTCAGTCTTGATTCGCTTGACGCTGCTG | 6240 |
| CACACCGCGAGAAACATCGTGGAAGATTACGGAGCTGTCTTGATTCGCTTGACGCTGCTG | 7490 |
| GATTCAGATCTGAGACTTGGGTAGCATTTGACAGACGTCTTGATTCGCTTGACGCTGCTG | 3510 |
| AAATTACTAAGTTGACATGTGGGTGACGCCGTATGAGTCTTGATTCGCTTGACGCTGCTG | 10400 |
| TCGATGACAATTTTACACATGAAAAACGAACTATGTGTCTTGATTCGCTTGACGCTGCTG | 3970 |
| ACAGCGAGGCCATTGCACGTGCAAATAAATTGAATCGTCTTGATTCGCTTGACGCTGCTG | 18800 |
| CAAGAGACTCGCGACCACGTGGAACGATCCAACTACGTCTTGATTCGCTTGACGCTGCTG | 17200 |

Study 3
Target: Histone acetyltransferase KAT6A, winged helix 1, GST fusion (KAT6A, Homo sapiens, UniProt Q92794, residues 1-85)
Technique: protein binding microarray
Form: double-stranded DNA, one strand shown
Sample: in vitro
Tested at: not given
Notes: 8-mer, flanks averaged, mean of 2 arrays, mostly near background
Relative to: not given
Direction: higher = stronger binding
Residues (chain): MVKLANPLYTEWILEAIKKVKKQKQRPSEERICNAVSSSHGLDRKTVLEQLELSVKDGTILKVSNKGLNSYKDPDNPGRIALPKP
| Sequence | E-score |
| --- | --- |
| AGCACACC | -0.116 |
| CTCCAGTC | -0.00381 |
| AAACAGCT | -0.157 |
| CCTCTGAC | -0.109 |
| GGTAAACA | 0.0203 |
| CCAGCGAG | -0.107 |
| CAAACTCA | -0.212 |
| CACGTTAG | -0.16 |
| AGCATTGG | -0.18 |
| CACCCATC | -0.0823 |
| CTCGGGTA | -0.015 |
| AAGGGAAA | -0.207 |
| GTCTGCGA | -0.0782 |
| ATTTTTCG | -0.0756 |
| ATATACCC | -0.0529 |
| TCAGCACA | -0.177 |
| TGTACTAA | -0.0567 |
| GCATAGCA | -0.101 |
| TGTCCACA | -0.213 |
| CACAGCAG | -0.203 |
| ATGGGGAG | -0.223 |
| ACTCATGG | -0.115 |
| GAAGATCA | -0.151 |
| GAGGGCGA | 0.0918 |
| CTACTAAG | 0.177 |

Study 4
Target: RING finger protein unkempt homolog, zinc fingers 1-6, GST-SBP tag (UNK, Homo sapiens, UniProt Q9C0B0, residues 30-357)
Technique: RNA Bind-n-Seq
Form: RNA
Sample: in vitro
Tested at: not given
Notes: RNA with constant flanks, human-mouse chimeric sites, ends assumed
Relative to: input RNA pool
Direction: higher = stronger binding
Target sequence (chain): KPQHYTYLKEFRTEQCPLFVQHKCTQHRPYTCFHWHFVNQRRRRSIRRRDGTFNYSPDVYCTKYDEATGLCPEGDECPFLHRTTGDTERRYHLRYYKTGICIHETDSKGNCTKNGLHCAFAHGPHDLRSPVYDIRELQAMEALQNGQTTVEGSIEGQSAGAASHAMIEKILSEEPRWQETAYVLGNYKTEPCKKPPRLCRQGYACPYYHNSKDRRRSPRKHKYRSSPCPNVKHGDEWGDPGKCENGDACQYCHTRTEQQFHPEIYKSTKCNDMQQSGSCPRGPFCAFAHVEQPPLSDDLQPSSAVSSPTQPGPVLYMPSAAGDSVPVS
| Sequence | bound/input enrichment [ratio] |
| --- | --- |
| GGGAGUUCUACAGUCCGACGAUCGGCCUGGGACCGUCCUGGGCUAGUACAAAUAGCGGCAGUGGAGGCUCGAGAGGAAAGUUUGUUAGUGGAGGCAGUGGAGAGGUCGUCCAUGUACGGUCCUUUACUCGUAAAAAUCCUUCUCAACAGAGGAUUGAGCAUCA | 0.198 |
| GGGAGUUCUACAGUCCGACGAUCGAUCAUGAACCACCAUCAGAAAUGAAGAUGAGAUUACCCAGACGAGCCAAAACAGCUGCGCUACAGAAAAGUAAACUUUAACCUUGCGAGUUCCUUAAUGAAGAUACUAAGUUAGGAAGCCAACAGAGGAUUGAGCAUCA | 0.326 |
| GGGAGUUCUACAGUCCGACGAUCUUUCUAUUGCAGCAAACGAUGCUAAGAAUUAAGGAUCCUAAGAAGUCCCUGGAUUUUUAUACGAGGGUUCUUGGACUGACGCUAAUCCAGAAGCUUGACUUCCCUGCUAUGAAGUUCUCGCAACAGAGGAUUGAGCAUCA | 0.088 |
| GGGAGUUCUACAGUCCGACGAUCCUGUGUGUGCUGAAUAAAUGGCUUGUAAAGAAGUUUUUCCAAGCUGUAACCCAUGCUGUUAUUAUAGUUGCUGCAAAAUGUCUCUUAUGAUAUUGAUUUUAUUUGUUCUGACUCUCCCUCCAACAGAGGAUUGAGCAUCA | 0.782 |
| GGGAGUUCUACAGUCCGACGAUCGCCACCAGAUCCCAGAAACAUGACCCUUGCUGCCUACAAAGAGAAGAUGAAGGAGCUCCCGCUGGUGUCCUUGUUCUGCUCCUGCUUCUUGUCUGAUCCCCUGAAUAAAUCAUCCUACAACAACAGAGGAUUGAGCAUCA | 0.371 |
| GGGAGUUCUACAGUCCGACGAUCUUAAUCCCCUUUACUGCUCCCCCACUUCUCAUGGUAAUAACAAAGUCUUAUAUCCCCGUCCUAGCUUUCACUCAGAUGGCUUAUGGAGCCAGUUUCCUAGCUUUCUUGGGAGGGAUCAGACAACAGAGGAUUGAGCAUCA | 0.29 |
| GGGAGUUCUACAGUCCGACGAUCGAUCCACAGUGGUCUGAGGAGCAACUCAUUGCUGCAAAAUUCUGUUUUGCUGGCCUUGUUAUAGGGCAGACUGAAGUGGAUAUCAUGAGUCAUGCCACACAGGCUAUUUUUGAAAUUCUGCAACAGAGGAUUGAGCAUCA | 0.157 |
| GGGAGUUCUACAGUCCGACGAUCCAGCCUCAGAGCCCAGACUUCCUGGACAUUACCAACCCUAAAGCGGUAUUAGAAAAUGCAUUGAGAAACUUCGCCUGUCUGACGACUGGAGAUGUGAUUGCUAUCAACUACAAUGAGAAGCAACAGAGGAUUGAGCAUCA | 0.437 |
